Measured values of several laboratories.
Each numbered part is a random draw from the data of one study; scales do not carry over between parts. Positions count from the first letter of the parent shown.

Sample 1
Target: Interferon regulatory factor 5, full length, phosphomimetic (IRF5, Homo sapiens, UniProt Q13568-2, residues 1-514, S451D/S453D/S456D/S462D)
Method: protein-binding microarray
Form: double-stranded DNA, one strand shown
Matrix: in vitro
Concentration: 940 nM top
Setting: 60-bp whole probe
With: salmon DNA 0.4 mg/ml
Baseline: random background probes
Direction: higher = stronger binding
Shared flanks, not repeated: GCCTAGCAC … GTCTTGATTCGCTTGACGCTGCTG
Oligonucleotide	fitted relative affinity [z-score]
TTAGGACTGGGGAGTGGGTTAGTGCTA	-0.0384
GACGGATTGCTTCTCCTGACGTGCTAG	-0.164
ACTAGTTTCCATTTTCAGAAGTGCTAG	2.68
ATAGGACTGGACTATCGGTTAGTGCTA	-0.00961
TTAGATATCAGTCTGGATTAGTGCTAG	-0.325
TTAGGTATCCCTTTCCTTTAGTGCTAG	1.35
TTCACTTTCTTTAACTCATTGTGCTAG	2.89
TCATAAGTTTCACTCTGCACTGTGCTA	5.96
TCACTCACCTAGTTTCATACTGTGCTA	2.22
TCAGCTTTCCTTTGCTTACTGTGCTAG	0.125
TTATTTATAAATTATCTTTAAGTGCTA	0.0935

Sample 2
Target: Histone acetyltransferase KAT6A, winged helix 2, GST fusion (KAT6A, Homo sapiens, UniProt Q92794, residues 85-181)
Method: protein binding microarray
Form: double-stranded DNA, one strand shown
Matrix: in vitro
Concentration: not given
Setting: 8-mer, flanks averaged, mean of 2 arrays, mostly near background
Baseline: not given
Direction: higher = stronger binding
Residues (chain): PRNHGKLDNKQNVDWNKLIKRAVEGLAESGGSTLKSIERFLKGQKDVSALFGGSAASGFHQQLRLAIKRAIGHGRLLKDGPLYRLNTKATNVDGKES
Oligonucleotide	E-score
TCGGCGCA	0.0533
CTTCTATA	-0.075
AACGCCAA	-0.022
ACTGAGTC	-0.0351
GGTTCTAC	-0.111
GAGGAGTA	-0.111
CGGTCACA	-0.025
AGTTCCCC	0.122
GCACGTGA	-0.189
ACGGTCCT	-0.163
AAGATTGC	0.125
GCCTGTCC	-0.0279
GACGCGCC	0.078
GCGTGGGA	0.172
CTCAGAGC	0.0929
CAGTCCCG	-0.00636
GCGCTCAA	0.0359
GGCCGGAC	0.139
GAAGTGCA	0.0327
GTAACCAC	-0.357
TAAAAGTA	-0.0901
AAGCGGCC	-0.13
CATGGTGA	0.0253
AATGCGAC	0.182
AAGATGTC	-0.232

Sample 3
Target: Eukaryotic initiation factor 4A-I (EIF4A1, Homo sapiens, UniProt P60842, residues 1-406, full length assumed)
Sequence of UniProt P60842 (whole entry, looked up): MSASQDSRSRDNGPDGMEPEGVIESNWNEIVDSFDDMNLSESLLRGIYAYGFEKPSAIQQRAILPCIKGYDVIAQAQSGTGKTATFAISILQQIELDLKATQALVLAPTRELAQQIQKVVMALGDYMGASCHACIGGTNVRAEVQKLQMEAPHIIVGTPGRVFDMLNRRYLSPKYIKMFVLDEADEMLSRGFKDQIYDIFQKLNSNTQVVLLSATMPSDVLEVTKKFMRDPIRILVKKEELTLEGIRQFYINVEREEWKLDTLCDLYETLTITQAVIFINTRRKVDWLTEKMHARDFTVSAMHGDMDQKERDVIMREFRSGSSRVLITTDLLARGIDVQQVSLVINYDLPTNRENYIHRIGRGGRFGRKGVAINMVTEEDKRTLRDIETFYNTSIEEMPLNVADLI
Method: RNA Bind-n-Seq
Form: RNA
Matrix: in vitro
Concentration: 15 pmol
Setting: 4-mer, random 30-nt RNA, single round
With: 3 µM DMDA-PatA, 2 mM AMP-PNP
Baseline: input library
Direction: higher = stronger binding
Oligonucleotide	4-mer enrichment [fold]
CUUA	0.947
AGAC	0.913
CGGC	0.655
CCAU	0.406
UCGC	0.97
GAAC	0.802
CUUU	1.03
UUCU	0.812
CCGA	0.739
AAGA	1.05
UGAG	1.11
CAUU	0.632
GAGA	1.27
GUGU	1.71
ACGU	0.944
UAAC	0.654

Sample 4
Target: Sal-like protein 4, full length isoform A (SALL4, Homo sapiens, UniProt Q9UJQ4, residues 1-1053)
Sequence of UniProt Q9UJQ4 (whole entry, looked up): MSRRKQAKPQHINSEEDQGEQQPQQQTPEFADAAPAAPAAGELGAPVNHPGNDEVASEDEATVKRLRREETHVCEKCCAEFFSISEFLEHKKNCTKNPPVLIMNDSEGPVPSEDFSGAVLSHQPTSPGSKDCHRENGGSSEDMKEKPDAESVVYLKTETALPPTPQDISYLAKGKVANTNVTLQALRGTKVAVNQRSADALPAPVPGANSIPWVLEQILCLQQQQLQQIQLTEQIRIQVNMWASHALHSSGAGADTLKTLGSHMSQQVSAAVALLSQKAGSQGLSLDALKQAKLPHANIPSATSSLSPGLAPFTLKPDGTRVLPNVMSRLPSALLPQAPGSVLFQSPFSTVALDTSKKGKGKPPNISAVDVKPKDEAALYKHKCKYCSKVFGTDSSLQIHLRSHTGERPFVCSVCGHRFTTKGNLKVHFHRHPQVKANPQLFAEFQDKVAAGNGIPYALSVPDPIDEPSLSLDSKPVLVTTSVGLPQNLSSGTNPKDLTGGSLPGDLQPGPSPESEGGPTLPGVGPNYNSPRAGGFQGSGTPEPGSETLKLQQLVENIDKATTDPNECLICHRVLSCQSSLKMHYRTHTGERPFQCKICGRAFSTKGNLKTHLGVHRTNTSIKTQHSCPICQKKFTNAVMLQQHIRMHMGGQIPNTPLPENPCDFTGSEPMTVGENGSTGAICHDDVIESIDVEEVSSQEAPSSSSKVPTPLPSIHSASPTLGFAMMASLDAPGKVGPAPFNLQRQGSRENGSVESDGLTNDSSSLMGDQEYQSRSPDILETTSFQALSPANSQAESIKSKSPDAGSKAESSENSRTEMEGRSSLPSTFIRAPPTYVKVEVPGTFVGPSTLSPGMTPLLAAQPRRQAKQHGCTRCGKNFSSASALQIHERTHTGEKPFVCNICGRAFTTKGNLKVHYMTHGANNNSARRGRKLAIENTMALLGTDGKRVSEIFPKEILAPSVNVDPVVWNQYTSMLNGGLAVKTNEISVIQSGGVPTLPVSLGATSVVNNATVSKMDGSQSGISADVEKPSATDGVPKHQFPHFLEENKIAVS
Method: universal PBM
Form: double-stranded DNA, one strand shown
Matrix: in vitro
Concentration: 600 nM
Setting: 8-mer, flanks averaged, mean of replicates
Direction: higher = stronger binding
Oligonucleotide	E-score
AGCTTAAA	0.087
AGGAGATG	0.0792
CCGAGCAC	-0.196
CTCCGGAG	-0.32
CAATAAGA	0.255
CCGTGTGC	-0.235
TCGAAAAA	0.264
CTTTCGGC	-0.109
ACATCCCG	-0.0714

Sample 5
Target: Prothrombin, mature alpha-thrombin (F2, Homo sapiens, UniProt P00734)
Method: aptamer microarray, sandwich
Form: DNA with 2'F-ANA
Matrix: in vitro
Concentration: 200 nM
Setting: whole 15-mer aptamer, many near background
With: Cy3 exosite-II aptamer, 400 nM
Direction: higher = stronger binding
Oligonucleotide: GGTTGGTGTGGTTGG
Modification	mean fluorescence intensity [a.u.]
2'F-ANA at 2 3 4 5 6 8 9 11 15	76
2'F-ANA at 1 3 7 10 13 15	79.5
2'F-ANA at 1 2 3 4 10 11 14 15	46.6
2'F-ANA at 1 6 9 11 12 15	203
2'F-ANA at 1 2 4 5 7 8 9 12 13	74.7
2'F-ANA at 2 3 5 10 11 13	57.3
2'F-ANA at 2 3 6 8 13	666
2'F-ANA at 2 5 6 9 11 13	334
2'F-ANA at 2 5 6 8 9 11 12 14 15	48.5
2'F-ANA at 2 3 4 8 12	1070
2'F-ANA at 1 5 8 11 12 13 14 15	62.4
2'F-ANA at 2 3 4 5 9 11 12 14 15	61.2
2'F-ANA at 1 5 7 11	49.6
2'F-ANA at 2 3 4 6 8 10 11 12 14 15	147

Sample 6
Target: ABI1, truncated, D143A, DHFR fusion (Arabidopsis thaliana)
Method: DHFR PCA, deep sequencing
Matrix: yeast
Setting: methotrexate growth selection, single substitutions
With: (+)-ABA 4.8 µM
Baseline: wild-type fitted maximum
Direction: higher = stronger binding
Starting sequence: PYL1, truncated, DHFR fusion (Arabidopsis thaliana); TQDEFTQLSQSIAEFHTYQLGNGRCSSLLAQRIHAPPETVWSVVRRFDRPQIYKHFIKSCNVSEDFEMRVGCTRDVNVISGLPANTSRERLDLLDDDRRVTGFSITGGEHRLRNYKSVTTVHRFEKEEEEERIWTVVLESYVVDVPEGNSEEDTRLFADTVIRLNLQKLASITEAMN; partner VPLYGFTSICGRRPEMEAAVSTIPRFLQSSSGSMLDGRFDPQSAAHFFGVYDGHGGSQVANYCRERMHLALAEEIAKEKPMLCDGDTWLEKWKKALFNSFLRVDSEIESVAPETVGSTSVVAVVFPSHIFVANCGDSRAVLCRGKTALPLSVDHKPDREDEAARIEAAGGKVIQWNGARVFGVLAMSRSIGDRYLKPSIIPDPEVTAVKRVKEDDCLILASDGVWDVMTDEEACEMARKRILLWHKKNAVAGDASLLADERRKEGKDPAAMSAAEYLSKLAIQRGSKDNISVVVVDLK
Change	relative binding score [%]
D48V	-0.181
L94T	-5.4
E4C	65.4
Q10I	40.6
N165I	-8.3
H110I	-13.6
T135Y	0.915
Y53T	4.41
L138V	24
R74H	2.54
R24S	54.3
D65A	60.8
E14H	37
F5D	47.4
E129S	81.6

Sample 7
Target: CCNA1, cyclin fold, Cln2 fusion (human)
Method: yeast growth competition, sequencing
Matrix: yeast
Setting: weak parent motif
Baseline: not given
Direction: higher = stronger binding
Starting sequence: SLBP docking peptide (human); ARYKRKLLINDFG; partner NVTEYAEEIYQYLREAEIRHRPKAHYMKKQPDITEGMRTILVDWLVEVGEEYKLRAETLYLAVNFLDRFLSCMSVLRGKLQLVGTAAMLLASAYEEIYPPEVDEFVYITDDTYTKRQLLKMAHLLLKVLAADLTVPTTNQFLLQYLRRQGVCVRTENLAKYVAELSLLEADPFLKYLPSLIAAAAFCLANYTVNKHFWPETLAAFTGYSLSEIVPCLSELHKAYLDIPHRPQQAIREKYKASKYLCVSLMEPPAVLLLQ
Change	normalised enrichment score
R2L	0.263
G13M	0.544
N10M	0.28
L8K	-0.322
K4H	0.372
R2D	0.52
Y3N	0.396
G13F	0.221
Y3W	0.0961
K4A	0.185
R5M	0.544
D11V	0.208
Y3C	0.285
R2V	0.401

Sample 8
Target: Ras GTPase-activating protein-binding protein 1, RRM domain (G3BP1, Homo sapiens, UniProt Q13283)
Sequence of UniProt Q13283 (whole entry, looked up): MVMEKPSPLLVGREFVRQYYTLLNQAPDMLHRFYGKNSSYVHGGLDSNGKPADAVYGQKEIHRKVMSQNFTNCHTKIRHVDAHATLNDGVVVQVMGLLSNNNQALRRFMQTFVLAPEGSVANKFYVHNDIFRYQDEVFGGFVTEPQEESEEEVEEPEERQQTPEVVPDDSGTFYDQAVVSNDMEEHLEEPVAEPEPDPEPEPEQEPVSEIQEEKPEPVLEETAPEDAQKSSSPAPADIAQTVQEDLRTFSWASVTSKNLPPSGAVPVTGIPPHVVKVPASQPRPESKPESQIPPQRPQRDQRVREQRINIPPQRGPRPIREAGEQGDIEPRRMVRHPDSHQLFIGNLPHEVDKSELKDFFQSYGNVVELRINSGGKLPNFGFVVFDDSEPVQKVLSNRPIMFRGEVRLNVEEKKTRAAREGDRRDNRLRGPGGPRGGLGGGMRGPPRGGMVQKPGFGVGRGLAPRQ
Method: RNA Bind-n-Seq
Form: RNA
Matrix: in vitro
Concentration: 1 µM
Setting: whole 134-nt RNA, ends assumed
With: 150 mM KCl
Baseline: input library
Direction: higher = stronger binding
Shared flanks, not repeated: GGGAGUUCUACAGUCCGACGAUC … UGGAAUUCUCGGGUGUCAAGG
Oligonucleotide	log2 enrichment
AGUCCUGUGCUACACAUCGUAUGUACCGAAUCGGUUUUUUUGGUUUGGAAAAAAAGGAAAGUAUUAUGUUACGCCGUUCGGAUCUGCACU	-0.244
UCAAGUCCUGUGCUACACAUCGUAUGUACCGAAUCGGGAAAGGAAAGGAAAGGGGAAAGUAUUAUGUUACGCCGUUCGGAUCUGCACUUC	-0.263
UCCUGUGCUACACAUCGUAUGUACCGAAUCGGGGAGGGGUUUUUUUGGGGUUUUUGGGGAAAGUAUUAUGUUACGCCGUUCGGAUCUGCA	0.676
GCAGGAAGUAAAAACAAAUGGAAAUGCUUCGGAUAGUGGCAGGGGUGGGGGUUGCUAAGGAAAGGGUGGGAUGGGAGUGGAAAAAGAGUU	1.14
CCUCAAGUCCUGUGCUACACAUCGUAUGUACCGAAUCGGUUGGUUGGUUGGGGAAAGUAUUAUGUUACGCCGUUCGGAUCUGCACUUCCA	-0.215
UGGAAGCUCAUACGACUGUGAAAGAAGCUGAGGAUGACAACAUCUCGGUCACAAUCCAGGCUGAAGAUGCCAUCACUCUGGAUUUUGAUG	-0.303
CUCAAGUCCUGUGCUACACAUCGUAUGUACCGAAUCGGGUUUGGGAGGGAGGGAAAGUAUUAUGUUACGCCGUUCGGAUCUGCACUUCCA	0.675

Excerpt of the above (sample 7):
Change	normalised enrichment score
N10M	0.28
L8K	-0.322
K4H	0.372
R2D	0.52
Y3N	0.396
G13F	0.221
Y3W	0.0961
K4A	0.185
R5M	0.544
D11V	0.208
